Measurements pooled from the literature.
Protocols differ between the studies behind these lines. Numbers after ± are the reported error.

Compound	tested on	assay	test system	setting	endpoint	result
CCN(CC)CCNC(=O)c1c(C)[nH]c(/C=C2\C(=O)Nc3ccc(F)cc32)c1C	AMPK (rat)	kinase activity, inhibitor	–	0.3 µM	inhibition	7%
O=C1C[C@@H](c2ccc(O)cc2)Oc2c(Br)c(O)c(Br)c(O)c21	bovine serum albumin	methylglyoxal-mediated glycation, fluorescence	–	concentration not given	inhibition	96.53 ± 0.34%
O=C(NOCC(O)CO)c1cc(Br)c(F)c(F)c1Nc1ccc(I)cc1F (stereo not shown)	TDO	kynurenine production	A-172	1 µM	inhibition	20%
C#Cc1cc(-c2cc(Nc3nc(N[C@@H](C)c4ccc(F)cn4)ncc3Cl)n[nH]2)ccc1C=O	LYN B kinase, human	enzyme activity	–	0.2 µM	inhibition	-4.35%
COc1cc(NC(C)=O)c(Cl)cc1C(=O)Nc1nccs1	GABA transporter	–	–	10 µM	inhibition	3%
O=c1c(O)c(-c2ccc(O)c(O)c2)oc2cc(O)cc(O)c12	bovine serum albumin	methylglyoxal-mediated glycation, fluorescence	–	concentration not given	inhibition	99.8 ± 2.03%
O=C(c1ccc(Cl)cc1)N(Cc1ccccc1)C1CCCCC1	KATP channel	–	–	10 µM	inhibition	-6.9%
Cc1cc(F)cc2c(CCC(=O)N[C@@H]3C(=O)NC[C@H]3O)c(-c3ccc(F)cc3)[nH]c12	GABAB receptor, non-selective	binding	–	10 µM	inhibition	1%
CCN1CCN(Cc2ccc(NC(=O)c3ccc(C)c(Oc4ccnc5[nH]ccc45)c3)cc2C(F)(F)F)CC1	ERK1/2 human	–	Huh-7	1 µM	inhibition	-51.4%
CN(Cc1cccnc1)C(=O)c1ccc([C@H]2[C@@H](F)[C@@H](F)C[C@@H](F)[C@H]2F)cc1	–	liver microsome stability	dog liver microsomes	1 µM	hepatic clearance	28 mL/min/kg
CNCc1ccc(-c2cc(-c3nc(-c4ccc(S(=O)(=O)C(C)C)cc4)cnc3N)on2)cc1	AMPK (rat)	inhibitor	–	0.4 µM, together with: ATP at Km	inhibition	0%
O=c1cc(-c2ccc(O)cc2)oc2c(Br)c(O)c(Br)c(O)c12	bovine serum albumin	methylglyoxal-mediated glycation, fluorescence	–	concentration not given	inhibition	97.8 ± 2.09%
CNC(=O)c1cc(Oc2ccc(NC(=O)Nc3ccc(Cl)c(C(F)(F)F)c3)cc2)ccn1	AMPK (rat)	kinase activity, inhibitor	–	10 µM	inhibition	-2%
O=c1cc(-c2ccc(O)c(O)c2)oc2c(Br)c(O)c(Br)c(O)c12	bovine serum albumin	methylglyoxal-mediated glycation, fluorescence	–	concentration not given	inhibition	95.4 ± 1.41%
O=C(Cn1ccnc1)Nc1ccc(C2CCCCC2)cc1	–	–	mouse liver microsomes	1 µM	hepatic clearance	55 mL/min/kg
Oc1cccc(Nc2nc(-c3ccc(F)cc3F)cs2)c1	GABA transporter	–	–	10 µM	inhibition	-11.9%

Excerpt of the above:
Compound	tested on	assay	test system	setting	endpoint	result
CN(Cc1cccnc1)C(=O)c1ccc([C@H]2[C@@H](F)[C@@H](F)C[C@@H](F)[C@H]2F)cc1	–	liver microsome stability	dog liver microsomes	1 µM	hepatic clearance	28 mL/min/kg
CNCc1ccc(-c2cc(-c3nc(-c4ccc(S(=O)(=O)C(C)C)cc4)cnc3N)on2)cc1	AMPK (rat)	inhibitor	–	0.4 µM, together with: ATP at Km	inhibition	0%
